Assay results pooled from the literature.
Lines come from different studies, so protocols differ. Numbers after ± are the reported error. ≈ marks a conversion by molar mass, not a printed value.

COc1cccc(OC)c1-c1cc(C(=O)NC2(C(=O)O)C3CC4CC(C3)CC2C4)nn1-c1ccc(C(=O)N(C)CCOCCN(C)C(=O)[C@H](CCCCNC(=O)[C@H](CC(C)C)NC(=O)C2OC2C(=O)O)NC(=O)CN2CCN(CC(=O)[O-])CCN(CC(=O)[O-])CCN(CC(=O)[O-])CC2)cc1C(C)C.[177Lu+3] (mixture of isomers) — result for “tumour-to-large intestine ratio”: 21.4 (mouse HT-29 xenograft; 72 h, biodistribution; relative to: tumour over large intestine).
Under “cumulative urinary excretion”, O=C([O-])CN1CCN(CC(=O)[O-])CCN(C(CO)C(O)CO)CCN(CC(=O)[O-])CC1.[Dy+3] (stereo not shown) is recorded as 98.8% (ICP-MS; cynomolgus monkey; dose not given, 4 d, mass balance group; relative to: dose).
With Oc1ccc([C@@H]2Oc3ccc(O)cc3[C@@H]3CCC[C@@H]32)cc1 the oral bioavailability was 13.9% (C57BL/6 mice, male, plasma; oral, 10 mg/kg).
CCCCC/C=C\CCCO[Si](CCCCN1CCCCC1)(OCCC/C=C\CCCCC)OCCC/C=C\CCCCC has a zeta potential of 1.35 mV (pH 5.5, formulated).
For C=CC(=O)Nc1cc(Nc2nccc(-c3cn(C)c4ccccc34)n2)c(OC)cc1N(C)CCNC, the recovery was 104% (storage stability; human dried blood spot; 2 h, -80 °C, LQC level).
CC(=O)N[C@@H](CC(C)C)C(=O)N[C@H](C(=O)N[C@@H](Cc1ccccc1)C(=O)N[C@@]1(C)CCCC=CCCC[C@@](C)(C(=O)N[C@@H](CCC(N)=O)C(=O)N[C@@H](CC(C)C)C(=O)N[C@H](C(=O)N[C@@H](CO)C(N)=O)[C@@H](C)O)NC(=O)[C@H](Cc2c[nH]c3ccccc23)NC(=O)[C@H](Cc2ccc(O)cc2)NC(=O)[C@H](CCC(=O)O)NC1=O)[C@@H](C)O — result for “HPLC retention time”: 16.6 min (reversed-phase HPLC, C18; N-acetylated peptide).
The tumour-to-lung ratio of COc1cccc(OC)c1-c1cc(C(=O)NC2(C(=O)O)C3CC4CC(C3)CC2C4)nn1-c1ccc(C(=O)N(C)CCCN(C)C(=O)[C@H](CCCCNC(=O)[C@H](CC(C)C)NC(=O)C2OC2C(=O)O)NC(=O)CN2CCN(CC(=O)[O-])CCN(CC(=O)[O-])CCN(CC(=O)[O-])CC2)cc1C(C)C.[177Lu+3] (mixture of isomers) is reported as 3.57 (mouse, HT-29 xenograft; 168 h post injection, biodistribution; relative to: tumour over lung uptake).
C=CC(=O)Nc1cccc(Cn2ncc3cnc(Nc4cnn(CCOC)c4)nc32)c1 gave a remaining compound of 82.2% (human, both sexes, whole blood; 5 µM, 60 min).
For COc1ccc2nc(NC(=O)c3ccc(C(N)c4ccccc4)cc3)sc2c1 (stereo not shown), the AUC was 1150 ng·h/mL (CD-1 mice, female, plasma; 10 mg/kg).
O=C(Nc1cnccc1-c1ccc([18F])cc1)c1ccnc(NC(=O)C2CC2)c1 gave a mean SUV of 8.49 (ex vivo gamma counting; GSK-3β transgenic mice, early-stage, cecum; intravenous, 120 min).
CCC(CC)n1c(Cc2ccco2)nc2cc(C(=O)N[C@@H](CC(=O)O)c3ccccc3)ccc21 gave an AUC(0-inf) of 4940 ng·h/mL (male Sprague-Dawley rat, plasma; intraperitoneal, 10 mg/kg).
For C/C(N)=N/C(=N\S(=O)(=O)c1ccc(C(F)(F)F)cc1)N1C[C@H](c2ccccc2)C(c2ccc(Cl)cc2)=N1, the Tmax was 6 min (C57BL/6 mouse, plasma; intravenous, 10 mg/kg).
C=C(NC(=O)c1csc(-c2nc3c(cc2O)-c2nc(cs2)C(=O)NC(C(C)O)C(=O)NC(=C(C)OC)c2nc(cs2)C(=O)NC2c4nc(cs4)C(=O)NC(COC(=O)c4c5c6c(cccc6n4O)COC(=O)C(OC4CC(C)(O)C(N(C)C)C(C)O4)C2OC5)c2nc-3cs2)n1)C(N)=O (stereo not shown) has a Tmax of 365 min (ICR mice, Streptococcus pneumoniae ATCC 49169 infected, immunocompromised, blood; intravenous, 8 mg/kg/day twice daily).
For O=C(O)CCCOc1ccc([18F])cc1-c1cc(-c2ccccc2C(F)(F)F)n(-c2ccccc2)n1, the absorbed dose was 14.8 µGy/MBq (OLINDA/EXM from mouse data, item: Upper large intestine wall; human adult).
The AUC(0-24h) of C=CC[C@@H]1/C=C(\C)C[C@H](C)C[C@H](OC)[C@H]2O[C@@](O)(C(=O)C(=O)N3CCCC[C@H]3C(=O)O[C@H](/C(C)=C/[C@@H]3CC[C@@H](O)[C@H](OC)C3)[C@H](C)[C@@H](O)CC1=O)[C@H](C)C[C@@H]2OC is reported as 438 ± 20 ng·h/mL (LC-MS/MS; rat, whole blood; intraperitoneal, 0.5 mg/kg single dose).
For [123I]c1ccc2nc(-c3ccc(-n4ccnn4)nc3)cn2c1, the tissue uptake was 0.207 ± 0.017 %ID/g (Wistar rat, male, adrenals; intravenous, 4 MBq, 6 h).
C=CC[C@@H]1/C=C(\C)C[C@H](C)C[C@H](OC)[C@H]2O[C@@](O)(C(=O)C(=O)N3CCCC[C@H]3C(=O)O[C@H](/C(C)=C/[C@@H]3CC[C@@H](O)[C@H](OC)C3)[C@H](C)[C@@H](O)CC1=O)[C@H](C)C[C@@H]2OC has a dose-normalized AUC(0-12h) of 165 ± 82 ng·h/mL (kidney transplant recipients, CYP3A5 *3/*3, whole blood; oral, dose not given, late phase, limited sampling).
CCc1cc(C)cc(CC)c1-c1c(OC(=O)C2(C(F)(F)F)CCC2)n2n(c1=O)CCOCC2 gave a solubility of 284 µM (≈ 132 µg/mL) (PBS; pH 7.4, 25 °C, 2% DMSO).
The Papp A→B of COCCN(C)C(C)C(=O)NC(Cc1ccc(-c2ccccc2)cc1)B(O)O (stereo not shown) is reported as 17 ×10⁻⁶ cm/s (Caco-2).
CC[C@H](C)[C@@H]1NC(=O)[C@H](Cc2ccc(O)cc2)NC(=O)CCCSC[C@@H](C(=O)N(CC(=O)N[C@@H](CC(C)C)C(=O)NCC(N)=O)Cc2ccc(F)cc2)NC(=O)[C@H](CC(N)=O)NC(=O)[C@H](CCC(N)=O)NC1=O gave a terminal half-life of 36 min (healthy women, plasma; intranasal, 300 µg single dose).
For CN([O-])C(=O)CN1CCN(CC(=O)N(C)[O-])CCN(Cc2ccccn2)CC1.[89Zr+4], the tracer uptake was 1.17 %ID/g (mouse, kidney; intravenous, 4 h).
Under “tumour-to-small intestine ratio”, COc1cccc(OC)c1-c1cc(C(=O)NC2(C(=O)O)C3CC4CC(C3)CC2C4)nn1-c1ccc(C(=O)NCCNC(=O)[C@H](CCCCNC(=O)[C@H](CC(C)C)NC(=O)C2OC2C(=O)O)NC(=O)CN2CCN(CC(=O)[O-])CCN(CC(=O)[O-])CCN(CC(=O)[O-])CC2)cc1C(C)C.[177Lu+3] (mixture of isomers) is recorded as 13.1 (mouse HT-29 xenograft; 4 h, biodistribution; relative to: tumour over small intestine).
For CSCC[C@H](N)C(=O)N[C@@H](CO)C(=O)N[C@H](C(=O)N[C@@H](C)C(=O)NCC(=O)N[C@@H](CC(C)C)C(=O)N[C@@H](CCCCN)C(=O)N[C@@H](CCCCN)C(=O)N[C@@H](CCC(N)=O)C(=O)N[C@@H](Cc1c[nH]c2ccccc12)C(=O)N[C@@H](Cc1c[nH]cn1)C(=O)N[C@@H](CCCCN)C(=O)N[C@@H](C)C(=O)N[C@H](C(=O)N[C@@H](CCC(N)=O)C(=O)N[C@@H](CCCCN)C(=O)N[C@H](C(=O)N[C@@H](CO)C(=O)N[C@@H](CCC(=O)O)C(=O)N[C@@H](CCCCN)C(=O)N[C@H](C(=O)NCC(=O)NCC(=O)N[C@@H](C)C(N)=O)C(C)C)C(C)C)[C@@H](C)O)C(C)C, the helical content was 54% (circular dichroism; 100% DOPS liposomes; 1 mM lipid).
With Cc1ccc(CN2C(=O)/C(=N\c3ccc(Cl)cc3Br)c3ccccc32)cc1 the Lym% was 56.9 ± 5.46% (mouse, blood; 150 mg/kg).
CN(O)C(=O)CCC(=O)NCCCN(CCCCN(CCCNC(=O)CCC(=O)N(C)O)C(=O)CCC(=O)N(C)O)C(=O)CCC(=O)N(C)O.[89Zr] has an intact compound of 99.9 ± 0.1% (PBS; 3 days, pH 7, 37 °C).
